Measured values pooled from the literature.
Parts stem from different laboratories: compare values within a part only.

Series 1
Target: RNA binding protein fox-1 homolog 2, RRM domain, GST-SBP tag (RBFOX2, Homo sapiens, UniProt O43251-10, residues 100-194)
Technique: RNA Bind-n-Seq
Form: RNA
Medium: in vitro
Concentration: 365 nM
Notes: natural RNA segment, single round, ends assumed
Reference: no-protein control
Direction: higher = stronger binding
All sequences stand within: GGGAGUUCUACAGUCCGACGAUC … UGGAAUUCUCGGGUGCCAA
Residues (chain): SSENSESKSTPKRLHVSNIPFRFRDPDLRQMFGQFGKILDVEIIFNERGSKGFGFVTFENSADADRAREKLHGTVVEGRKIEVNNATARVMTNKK
Strand | RBNS enrichment (R)
ACUCGUUUCUAGGGUUUUUUAUUUGCAGUUUAGGAACUAUUAGGAAUGUCAGGACUUUAUCAGCAGGGGUAAAACUACCACCUGGCCUAGCCUAAGUAGGAAGUGAAAAG | 0.747
AAGAUGUCCUUCCAGCUUGUCAGACACUGCCUACCCUCUCCCUGAAUGAGCACUGGCUGAGGCUGUGGCCUUUGACCUUUAUGUUUCCUCCCGUCCUCUAAGACUAGCUC | 0.296
CCCCCAGUGCAUUUCUUCACAGUGAAGAAAAGGAAAAAUUUCAAAACAAUACUUUUUGUAUUAUCUAGAGUCAGCCCACUUCAACAGAUUUUUCUCUCACUAACUGAAAG | 0.72
AAAGUAACUUUAAGAGAUUUUUGGAAAAGCUUUAUAUACAUUCUUUUCAAAUUUCAGUACAAAUGAAAAGUGGUUUUAAUCAGUGAUUUAGUAGACUUUGAGCAACUGUG | 0.707
UAGAUAAUAACUGUCUUCUGGACUUGGUCUUGAAGUCUGUACAGAUUCAGCCUCAGUAGUAGCGAACUGCACUGCUGUUUGGUUUGGAGUACAAAUUAGACUUAUAGUCC | 0.306
AGAGAACGGGACCGGCACCACUGAGAAAGGAGUCUGGUUGGAAGCAAAUGUUUUUUUAAUGGACUUGCAUCUCCUCACCUUGAUCAGGACUAAAGGACGGAGGCCGCCCC | 0.395
UUUUGCUGACUUCUUUAACCAUUUAUAUUGUUUAAAUUAGUAAUAUCCAAUGCAGUGCACACUUUUUUGUCUUUUUUCCAACGGAAUAUUUUGGUUGUCUGUAGCGUUGG | 0.73
ACAUUUCUGGAAUGUGUGUACCCUGCUGGUGACUUUGCAGCCCCGCCUUGCCUGACCUCCCACCCUAGUGGCCACCGGGAAGGCUGAAGGGAGUGGACACCACAGGAAGA | 0.35
AAAAUCAUAAACCAUGGCUACUCUUGGGAACCACCCGGCCAUGUGGUCGCCAAGUAGAGCAAGCCCCCUUUCUCUUCCCAAUCACGUGGCUGAGUGUGGAUGACUUUUAU | 0.361
GGAGCGGAGGGAGGACCAGUUGCAUGUGUUUCUGCCCACUCAUUUUGAGCAGCCAUAUUAUAAAAUGGAUCAUCAGAGCUGAGUGACAACACGAGAGUGGUACUGGUUUC | 1.69
AGCCGUGCAGCACUCGGGAUGUCUGGUUCAGCAGACCCAGGCUUUAUUGGCCAAAGCAUUCUUACAGAACAGUGUCUAAAAGGUCAUUCCCAACCCUUUCUGAUAUUGGC | 0.311
UAUAGCCCCUGUCCUUCAUGUGUCUGGCCAUGUAGACUCUCAGGCAUCCUGUCCAUUUUUAACCUGUGUUCUGCCAGUAUGACUGUGUAGCUCAGUCAUAUUGAACAGGG | 0.563

Series 2
Target: Hepatocyte nuclear factor 3-alpha (Foxa1, Mus musculus, UniProt P35582, residues 1-468, full length assumed)
UniProt P35582, sequence (whole entry, looked up): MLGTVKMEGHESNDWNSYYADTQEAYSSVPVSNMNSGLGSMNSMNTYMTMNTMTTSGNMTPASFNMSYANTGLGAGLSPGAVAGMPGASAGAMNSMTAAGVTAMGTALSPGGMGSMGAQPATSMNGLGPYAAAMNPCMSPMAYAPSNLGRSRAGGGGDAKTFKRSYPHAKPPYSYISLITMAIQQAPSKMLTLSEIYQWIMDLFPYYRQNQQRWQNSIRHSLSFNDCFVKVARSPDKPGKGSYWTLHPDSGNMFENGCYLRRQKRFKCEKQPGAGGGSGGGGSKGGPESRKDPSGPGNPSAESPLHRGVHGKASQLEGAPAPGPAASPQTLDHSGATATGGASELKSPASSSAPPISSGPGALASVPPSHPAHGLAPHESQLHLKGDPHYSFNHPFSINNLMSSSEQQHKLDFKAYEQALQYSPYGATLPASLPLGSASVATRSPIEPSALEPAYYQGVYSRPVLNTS
Technique: EMSA with sequencing
Form: double-stranded DNA, one strand shown
Medium: in vitro
Concentration: 10 and 20 nM
Notes: whole designed probe, mean of two concentrations, ends assumed
Reference: negative control set to 0
Direction: higher = stronger binding
All sequences stand within: GTGAGCGGTGCCCATTGATGGGGAAC … TTTCACTGGGATCGTGGGGAC
Strand | normalised bound fraction [ratio]
GCTCCTCACCCCCAACTGGGGGCCTGAGTAGGGACAGCACAGAGGCTGGTGCCTGCTGCTCTTCAGTCTCTGTTTCCACGGCTCAAACCAAAGTAAACAACAGAATGGCCATGTAGGTGCAAAGTACCAATGACAGCATGGACCCTTGGGTGGGCTCCAACACTCACCCTAATAAAGCTGGGGAGGAAGGGGC | 0.434
ATCTTCCCCCTCTTCCTTGCCCCACCAGCTCACCTTCCCGGGTTATTTGCAGATAGGAAAATAAATAAAGCCGGCATTCGTTAACCCTCTTCACGCGCATACTGCTGTTTGCTCTGGATGAATCATGGTCCTTTGGCGAGGCGTGGCTCCGGGAGAGCAAAGCACCGTGTCAGGGCCATGATCCGGGGTGGCC | 0.34
AGAAATTAGGATTTGAAGATGGAGGGGAAAGTGGGTGGGGAAAGAGTAGAGTAGATAGGGCTAAATAAATAAAACTACCATGTATATGAACAGTGTAATCTAGGACTTAAGAACTACTAAGTCCTTGTCTTGTATTAGTAAATACTAAATTATAAATAAAACACACTATAAGAATGTTGTTTTATATATCAAT | 0.425
TCAACTGACTCACCCAGAGCAACTTCTAGTCCTGCAAGCTATGTTCATGGAGTGTCCTATGCAGGTGCATCCTTTTTTATCTTTTATACTGCAAGATTACTCTGTGTATTTTCTGTGTTTAGACTCATAAATACTTAACATTTTGTTACAATTTCCTACAGTGTTCAGTACAACAACATGTTGTATGGTTTAT | 0.0238
AAATTTGAAGCTTCACTTATATTGTGTCTTTATTCTGGAAAATAAATATTATTTATTCTGTTAAGTTTCTATTGGTTTTCTTTGCAATATTTCATGTTTACTTTGTTTTAGCTAAACTTTTTCTGGTATGGTGTACTAGAGACTTCTAACAAATTCTATATAAAAACAGACACACGTATAATAATCATATCTT | 0.366
CACGTGCACAAACCCATATGCCTTACAGAGTCAAGGGCTGTGATGAGGGTCCCCACCCTTGCACACTTCTCTGTCCTCTGTCTGGGCTCAGAGTAAACAGGGGGTCACCTGGAATCCAGGTCTAAGCTGGGCTTGGAGGTGTCCTAATGAAGCAGGATGCTGACATGCACTTCCCCAGGTCAGCTGGGGCTGT | 0.1
CATCTCATTAAAACTTGGCAAATCTTTGGATCTGCTTAGAGACACTGAATGTATATAGAAGAATAACTATTATTATTTATGCTTATAAAATGTTTGTTTACATTGTTTTTCTGCCTTTCTATAACCATCCTGTTGTCTTGGTGACACTGGTACTATTCCAAAAGGTTTTGCCCAACTCATGTAACTAATAAAG | 0.463
GCACTCGGCTCCCCAGAGGTCAGCGCACCCCAAGCCCAGAGGCCGGCTGGCCTCGGCACGTCTCACTCCACTATCTTCCCTCCTCCCTGAACTCTGTTTACACAAGGCTGGTCTTGGCTCTGAGGCTGCTAGATTTTAAATGCAATCTCACTGGTGACTCACTGGTGCATCGTCATTTGGCTTTGCCTGGAAT | 0.477

Series 3
Target: RING finger protein unkempt homolog, zinc fingers 1-6, GST-SBP tag (UNK, Homo sapiens, UniProt Q9C0B0, residues 30-357)
UniProt Q9C0B0, sequence (30-357, looked up): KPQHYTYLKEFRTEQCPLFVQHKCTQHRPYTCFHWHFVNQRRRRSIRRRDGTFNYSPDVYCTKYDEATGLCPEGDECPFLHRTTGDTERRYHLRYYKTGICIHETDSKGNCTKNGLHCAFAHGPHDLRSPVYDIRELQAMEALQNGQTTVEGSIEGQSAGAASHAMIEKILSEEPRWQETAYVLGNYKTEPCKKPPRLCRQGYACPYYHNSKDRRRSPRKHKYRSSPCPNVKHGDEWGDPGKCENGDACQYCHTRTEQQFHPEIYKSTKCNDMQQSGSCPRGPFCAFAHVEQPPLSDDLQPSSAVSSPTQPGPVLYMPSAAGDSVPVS
Technique: RNA Bind-n-Seq
Form: RNA
Medium: in vitro
Concentration: not given
Notes: RNA with constant flanks, human and mouse sites, ends assumed
Reference: input RNA pool
Direction: higher = stronger binding
All sequences stand within: GGGAGUUCUACAGUCCGACGAUC … CAACAGAGGAUUGAGCAUCA
Strand | bound/input enrichment [ratio]
UUAUAUCUCAUUCUAAAGAUAUCUAGCAAAUCUCCAGCAGAGAUCUAGGACAGUGCCCAGGAAAGCAAUGGUAUCUGUUGGUAGGUACAGGACUGUAUAUAGGACUCUAUUCACUUAGCU | 0.806
UGGCUUAUUUUAGUUACAGGCUACCUCUUAGCUGAUGAUACUCAGGGAGAGACUCCGCUAAUACCUCCAGAAAUAAUGGAAUAUUCCAUUAAGCAUUCAUCUGAAGUUGACAUUAAUACA | 0.328
UAUUUCUUAUACUGUACAUGGUACAUAAAGUGCUUUCAAGAGGCUAAAACAAAACUUUUCUAGCAAAUAAUUUAAGUUAAAUGUAAAAUAUCCUAUAAAACCUAGAAUUGGUCAAAAGCA | 2.86
ACCAUGCACAAUUUUGUACGGAAGACCUUCUUCAGCCUGGCGUUCUGUGACUUCUGCCUUAAGUUUCUGUUCCAUGGCUUCCGUUGCCAAACCUGUGGCUACAAGUUCCACCAGCAUUGU | 0.132
CUCAUGCCUUCCAGUCUGCAGACCCCUCAGACCCAGGAGCAGAAUGGGAUUCUAGACUGGCUUAGGAAACUGCGUUUGCACAAGUAUUACCCCGUCUUUAAGCAGCUCUCCAUGGAGAAG | 0.166
CUUACCUCUUGCAAAAAAAAGAAAAAAGAAAAAAGUUCAUUUAUUCAUUCUGUUUCUAUAUAGCAAAACUGAAUGUCAAAAGUACCUUCUGUCCACACACACAAAAUCUGCAUGUAUUGG | 0.527
UUGCUUUGCUGGUUUCAUAUUUAUUUGUUGUAUUUAAAAACUGCAUUAUUGUGAGAGUGAUUUUUUUCCAGGAUAUUUUAUUCUUGGGGGAGGGGGUCAGUGCUAUAAUCUUGAAGAAAA | 0.543
AUAUCUAUACACACAUGUGUGUUGUGUAUAUGCAUGUGUGUGUGUGCGUGUGUGUAUAGUUUUAGCUCCAAGCCAAGCAAGUUUGUGUUUGGAUAGAGGGGAACUUAACUAUUAACUACA | 0.143
GACUGGGAAAUGUCACAGUCUUCAAUAAAGAGUUCUAUCUGUCUUCUACGCGGGAAAAUCUAUGAUGCUCUAGAUAACCGAACCCUGGCUACCUACAGCUACAAAGAAGCUUUGAAGCUU | 0.291
AGCGACAGAAAAAGGGAAGGGUGUCUCAUCCCCCUUCCUCCUCUCCUCCCUGUCCUGAGCCUUAGCCAUGGCCGAGGCAGGGGCUGGGCUGAGCGAGACCGUCACUGAGACAACGGUUAC | 0.375
UGAGUGCACACCCCCCUCUGUGUGUGUGUGUGUGUGUGUGUGUGUAUGUGUGUGUAUGUGUAGGUCUGUAGAUCUCUUAUCCCUUAGUGAAGGUGAAUACCAGAAGUAAACACAGCCUCU | 0.464

Series 4
Target: PABPC1L2, full length, GST fusion (mouse, UniProt A0ABA7IW68)
Technique: RNAcompete
Form: RNA
Medium: in vitro
Concentration: 20 nM
Notes: 7-mer, probes averaged, single round
Reference: mean of 7-mers
Direction: higher = stronger binding
Residues (chain): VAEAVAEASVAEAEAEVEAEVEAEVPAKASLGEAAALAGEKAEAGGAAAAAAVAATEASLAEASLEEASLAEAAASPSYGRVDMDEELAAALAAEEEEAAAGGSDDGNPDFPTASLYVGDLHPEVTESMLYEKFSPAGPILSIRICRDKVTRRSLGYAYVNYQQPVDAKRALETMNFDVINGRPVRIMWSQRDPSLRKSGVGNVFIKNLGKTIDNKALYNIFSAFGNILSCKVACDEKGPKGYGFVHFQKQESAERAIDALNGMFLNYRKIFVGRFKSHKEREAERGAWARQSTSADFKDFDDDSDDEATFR
Strand | 7-mer Z-score
UUUGUAG | -0.335
AGUUGGC | -0.0409
AUCUAAA | 0.809
CCCUCGA | -0.255
GCACCAC | -0.0536
GCUCAAU | 0.0442
UUUGGUG | -0.371
UAACCGU | -0.228
UUGCGAA | -0.0681
CGAGCAU | -0.133
GAAGAUU | -0.0482
GUGGCUG | 0.215
UUUAUGA | 0.196
UCGCCUA | -0.362
UAGAGAC | 0.124
UCAACCA | -0.184
UGGGGUG | 0.0352
GUGUUAG | -0.233
GUAGUGG | -0.106
CGCCAUG | -0.267

Excerpt of the above (series 1):
Strand | RBNS enrichment (R)
AAGAUGUCCUUCCAGCUUGUCAGACACUGCCUACCCUCUCCCUGAAUGAGCACUGGCUGAGGCUGUGGCCUUUGACCUUUAUGUUUCCUCCCGUCCUCUAAGACUAGCUC | 0.296
ACAUUUCUGGAAUGUGUGUACCCUGCUGGUGACUUUGCAGCCCCGCCUUGCCUGACCUCCCACCCUAGUGGCCACCGGGAAGGCUGAAGGGAGUGGACACCACAGGAAGA | 0.35
AAAAUCAUAAACCAUGGCUACUCUUGGGAACCACCCGGCCAUGUGGUCGCCAAGUAGAGCAAGCCCCCUUUCUCUUCCCAAUCACGUGGCUGAGUGUGGAUGACUUUUAU | 0.361
AGCCGUGCAGCACUCGGGAUGUCUGGUUCAGCAGACCCAGGCUUUAUUGGCCAAAGCAUUCUUACAGAACAGUGUCUAAAAGGUCAUUCCCAACCCUUUCUGAUAUUGGC | 0.311
AAAGUAACUUUAAGAGAUUUUUGGAAAAGCUUUAUAUACAUUCUUUUCAAAUUUCAGUACAAAUGAAAAGUGGUUUUAAUCAGUGAUUUAGUAGACUUUGAGCAACUGUG | 0.707
UUUUGCUGACUUCUUUAACCAUUUAUAUUGUUUAAAUUAGUAAUAUCCAAUGCAGUGCACACUUUUUUGUCUUUUUUCCAACGGAAUAUUUUGGUUGUCUGUAGCGUUGG | 0.73
UAGAUAAUAACUGUCUUCUGGACUUGGUCUUGAAGUCUGUACAGAUUCAGCCUCAGUAGUAGCGAACUGCACUGCUGUUUGGUUUGGAGUACAAAUUAGACUUAUAGUCC | 0.306
AGAGAACGGGACCGGCACCACUGAGAAAGGAGUCUGGUUGGAAGCAAAUGUUUUUUUAAUGGACUUGCAUCUCCUCACCUUGAUCAGGACUAAAGGACGGAGGCCGCCCC | 0.395
